Measurements pooled from the literature.
Parts stem from different laboratories: compare values within a part only.

Series 1
Target: Hepatocyte nuclear factor 3-beta, forkhead domain (FOXA2, Homo sapiens, UniProt Q9Y261, residues 142-269)
Technique: protein-binding microarray
Molecule type: double-stranded DNA, one strand shown
Medium: in vitro
Tested at: not given
Setting: k-mer, scored over probes, only values ≥0.25
Reading: higher = stronger binding
Target sequence (chain): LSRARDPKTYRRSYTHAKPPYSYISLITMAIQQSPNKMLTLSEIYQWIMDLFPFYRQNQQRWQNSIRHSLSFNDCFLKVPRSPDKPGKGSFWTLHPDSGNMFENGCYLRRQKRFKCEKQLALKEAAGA
Strand | E-score
GTTGAATA | 0.265
AGATCATA | 0.287
ACACAAAT | 0.327
ACGTATAT | 0.307
TCATGACA | 0.256
GGTAAATA | 0.38
CAATATAA | 0.274
GTTGTACA | 0.284
ACACACAA | 0.407
ATCTATAC | 0.259
ATGCAGTA | 0.256
ACGGACAA | 0.292
CTGTTTGA | 0.276
GATTAAAA | 0.262
TCTTATCA | 0.282
CATGGTCA | 0.308
TTACATAA | 0.318
ATATATAC | 0.351
TCAAACCA | 0.267
ACTTACAA | 0.339
ATAACCAG | 0.269
GAATTAAC | 0.263
AGTGTTTA | 0.317
CAACATAA | 0.339
TATTACAA | 0.334

Series 2
Target: RNA binding protein fox-1 homolog 2, RRM domain, GST-SBP tag (RBFOX2, Homo sapiens, UniProt O43251-10, residues 100-194)
Technique: RNA Bind-n-Seq
Molecule type: RNA
Medium: in vitro
Tested at: 365 nM
Setting: natural RNA segment, single round, ends assumed
Reference: no-protein control
Reading: higher = stronger binding
Shared flanks, not repeated: GGGAGUUCUACAGUCCGACGAUC … UGGAAUUCUCGGGUGCCAA
Target sequence (chain): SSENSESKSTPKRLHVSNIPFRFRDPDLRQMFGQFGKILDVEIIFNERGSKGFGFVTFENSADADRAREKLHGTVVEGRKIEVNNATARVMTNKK
Strand | RBNS enrichment (R)
CGCUGCUCCUUUUCGGUAGAGGAGAGGCCCAUCACUGGUGUGGUGGGGUGGGCUCUCCCUUAGGCUUGGGCAAGGCAGCCACCUGCCCUUGCUCUCCCUUAGUGUUCCCU | 0.192
AAAACUCUCAAGAAAGCAAAUUGCACCUCAGCUGGAUUGAUUUCCAAAUGCUAGCAUGUACUGUAUGGGAGGAUGAUCCAGAUGUUUCAAAGAGAAUUUCUCUUAGUUUA | 13
UGAUUUUUUUGGUUAAAACUUUUUCAUUGAUCUGAAUUGCUUAAAUUGCAUAUAUUGUAAAAUAGAGUCAGAUGUAUAUUUUAAAAUAAUUUCAGCUGACUUUCCUCUGA | 0.695
UGUAAUAAACCAAGCUGUACAAUUUAGUUUAUAAUAGCAGUAUCUGAGCUGCUCCAAAAUAUAUAUAUCAACAGUGGUAAAUACUGUAGAUUUUUAUAUAUAUAUAUAUA | 0.698
UUCCCCUGGGUCAGUGAUGGAAAGGGGUUAACUUCAGCCAGGAUUGAUGGCAGCUGAGGGAAAUUCUUGCCCAACUAAACCCAGAACUCAAACUUAACAUUAGAAAAUAA | 0.798
CGUCCAAGGCUGUGCAUUCGUCUAAUUAGCGUCGUGUAUGUUUUCCUUUUAUUUUUUCCAAUAAAAAAGCAGUGGGAUGAAAAUUGCUUUGAUAUAUAGCAGGUAACAUU | 0.683
ACUCCACCGAAGAGGUGCGCCACUGGGAGCCACCCCAGCGCCAGGCGCCCGUCCAGGGACACACACAGUCUUCACUGUGCUGCAGCCAGAUGAAGUCUCUCAGAUGGGUG | 0.295
CCCUUCUUAACGAGCAAUAUGUCUGACCUGUACUAUAAGAUCUUUCUGAUAACGCAGAGAUUUUUUGUUUUUUUUUGGUAGCUCAGUAGAAGUGCGUCCUGUUUUCGCCU | 2.48
UGGCCCGUGGACAGGAUAAGCAGAUGCACCUGUGACUGACUGGAGGCGUGUUGCUGUGUAUCCCGGGCAUCCAUGGGUUCCAACUGCCACUGCCCCAGUCUUGGCCAGAG | 0.829
UCCCGAGUCCUUGGCUUAGCAUGGCCUCCUUUUCUAGAACUGCACAGAGGGGAGGAGAGAGUAGCCGGUAGACGGAAGGAGGGAGGGGCAUGCGUACAUGUCAGGUGUUG | 8.91
UAGCCCCAUCUGGACCAUCCACCCACAUCUGCUUGUCAAUCUGGCUGCAAACCUAAGCAGGCAGGUAGUCUAUGGACUUCCAAACUUAGAAGGGUCUGAUAUUAGGUUUA | 0.26
CUGAGAAUGUCCCCCCCAAUGGCCUCCGCCAUCCAGAACUUGGUACAUAUUCUGGUGGCUCCCUGCUGGCCCUCUGCUCACACCUUGAAAGAGCCUUUUCAAAUACAGAU | 0.336

Series 3
Target: PABPC1L2, full length, GST fusion (mouse, UniProt A0ABA7IW68)
Technique: RNAcompete
Molecule type: RNA
Medium: in vitro
Tested at: 20 nM
Setting: 7-mer, probes averaged, single round
Reference: mean of 7-mers
Reading: higher = stronger binding
Construct (chain): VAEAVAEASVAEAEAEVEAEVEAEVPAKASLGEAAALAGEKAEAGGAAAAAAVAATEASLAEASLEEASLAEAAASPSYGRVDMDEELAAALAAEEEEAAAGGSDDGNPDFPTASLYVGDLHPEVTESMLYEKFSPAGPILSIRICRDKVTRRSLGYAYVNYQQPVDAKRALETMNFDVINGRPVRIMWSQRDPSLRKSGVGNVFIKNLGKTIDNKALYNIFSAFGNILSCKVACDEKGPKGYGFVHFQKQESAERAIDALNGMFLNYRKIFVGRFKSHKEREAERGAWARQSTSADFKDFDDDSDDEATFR
Strand | 7-mer Z-score
CUCCUGG | -0.237
GCAGCGG | -0.0391
ACGGAGC | 0.0297
CUUAUGU | -0.367
CGCGUUG | -0.113
UCACCGU | -0.322
UCCCAGG | -0.287
GUACGUG | -0.144
AACAGGU | 0.586
GGCCUGA | -0.0772
UAAUGAG | -0.0663
GGUGAAC | -0.0138
GAACGCU | -0.0881
GGUAACC | -0.0573
GCUCAUA | -0.0319
UAGACAU | -0.0301
UUCCAGG | -0.202
UCCGUAA | -0.0246
CUCUUGU | -0.499

Series 4
Target: RING finger protein unkempt homolog, zinc fingers 1-6, SBP tag (UNK, Homo sapiens, UniProt Q9C0B0, residues 30-357)
Chain of UniProt Q9C0B0 (30-357, looked up): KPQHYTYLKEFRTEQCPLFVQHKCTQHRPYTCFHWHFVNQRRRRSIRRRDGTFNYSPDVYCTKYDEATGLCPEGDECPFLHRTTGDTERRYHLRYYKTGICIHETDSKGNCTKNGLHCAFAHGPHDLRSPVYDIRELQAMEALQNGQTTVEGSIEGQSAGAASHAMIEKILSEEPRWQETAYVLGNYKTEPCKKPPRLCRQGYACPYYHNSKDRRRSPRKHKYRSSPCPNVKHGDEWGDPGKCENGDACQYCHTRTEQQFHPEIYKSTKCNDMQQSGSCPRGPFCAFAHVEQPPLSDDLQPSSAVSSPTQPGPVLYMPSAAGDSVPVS
Technique: RNA Bind-n-Seq
Molecule type: RNA
Medium: in vitro
Tested at: 100 nM
Setting: RNA with constant flanks, vertebrate orthologous sites, ends assumed
Reference: input RNA pool
Reading: higher = stronger binding
Shared flanks, not repeated: GGGAGUUCUACAGUCCGACGAUC … CAACAGAGGAUUGAGCAUCA
Strand | bound/input enrichment
CAGUAAGGGGAUGCUGGAUGAGAUGAGGAGCAAGUUAAGGCGGCAGAGGUUGGUAAAAUUGCUGCCAUUGCACAAUGGCUAAACUGCAGUCACUUUUCUGUGUAAAACCAGCUGUGUUUA | 0.532 ratio
UCCCAGCACUUUGGUGAAAAGUGUGGAUUGGUUGCUUGUAUUUUCCUUAUUCUUUCUAGUUAGUUUUAUUAUGUAUGCUACUAUUCGAACUGAAAGUAUUCGAUGGCUAAUUCCAGGACA | 0.611 ratio
GGUUGAUGUUUUGAAGAACCACUUAGUAAAAGAAGGUCGAGUAGAUGAAGAAAUUGCACUUAGAAUUAUCAAUGAGGGUGCUGCCAUCCUUCGGAGAGAGAAAACCAUGAUAGAAGUAGA | 1.17 ratio
CCCUGUGAGGGUCUCCUGACCACUCACUGUUACGUCUGCUAUCUGUAAACACUUCUGUCUUAGUUUUCUCAUUGUAUAAUUGAUGUUCUUUAAAAUUGUCAAUGUAUAACAGGGCUUAUG | 1.23 ratio
GAUGUAUUUAUACUGGCCAAACAUUUUUGACUUGUAUUUCUUUGUCCUUUUUUGGUAGUCCUCGUUGUUACUCGCACCAUUUUUAUGUCUCCUUCACUGAAGGGCUAGAGUUUUAACUUU | 0.456 ratio
CCUCAUUUUCUCACUCUGUAUGAGUGGGCAAUUAUUUUUUUGUUUUUUUUACAUUUUGUAUAGAAACAAAUUCAUUUAAACAAACUUAUUAUUAUUAUUUUUUACAAAAUAUAUCUAUAG | 0.883 ratio
GCAUGCACAUGCCACUGUCACCGAAAGCGAACCAUCACUUCUCAGAUUUCCGAGCUGUUGUAGUGUUUCCCAGUCCCUACCCUUCCCACGACUUUGAGAGAUGAACUGUCCUAAGUUGUU | 0.393 ratio
ACUCCCUCAACUUCAGUUUUUCAGGUUGUAGCUGAUCCAUCUUUCUUCUUCCCCCUCCUCUCACUGUUCCUUUCCUUUCCUUUCUGUCUGCCCAACUUCAGACACAUGAGUUCUUCCCCU | 1.05 ratio
GUGACUUUGGACGUCCGCUCCUCCCAGGUGCGGUGAGUGCUUAACCUCCGGUCUUGCGGCUUAGCUUUUCUCUCGGGGACUCGAGGCCUCUGUUGCAACCAUGCUCCGCCAGAUCAUCGG | 0.61 ratio
GCACUACCUGUCCAAAUUUCACAACACUGAAUGCAAAGUAGUAAUUUUUAUAGUCACGAUAAGGUAGCUUUAGGGCAGUAUCACUAUGAUUUUAUUAGAGCAGGUUUUGAAAAUGUACAA | 1.45 ratio
AAAUCAGUAGAAUUACAUAAUACUAAAGUUGCAGUUAAAGGAUUUCCAAGUAUGUGUUGGUAGUUACUAAAAGAAUUAUAGCUGUUAUUGCCUUGUAUUUAUAGCCCUUGUUUCAGGUUU | 0.724 ratio

Excerpt of the above (series 2):
Strand | RBNS enrichment (R)
CGCUGCUCCUUUUCGGUAGAGGAGAGGCCCAUCACUGGUGUGGUGGGGUGGGCUCUCCCUUAGGCUUGGGCAAGGCAGCCACCUGCCCUUGCUCUCCCUUAGUGUUCCCU | 0.192
AAAACUCUCAAGAAAGCAAAUUGCACCUCAGCUGGAUUGAUUUCCAAAUGCUAGCAUGUACUGUAUGGGAGGAUGAUCCAGAUGUUUCAAAGAGAAUUUCUCUUAGUUUA | 13
UGAUUUUUUUGGUUAAAACUUUUUCAUUGAUCUGAAUUGCUUAAAUUGCAUAUAUUGUAAAAUAGAGUCAGAUGUAUAUUUUAAAAUAAUUUCAGCUGACUUUCCUCUGA | 0.695
UGUAAUAAACCAAGCUGUACAAUUUAGUUUAUAAUAGCAGUAUCUGAGCUGCUCCAAAAUAUAUAUAUCAACAGUGGUAAAUACUGUAGAUUUUUAUAUAUAUAUAUAUA | 0.698
UUCCCCUGGGUCAGUGAUGGAAAGGGGUUAACUUCAGCCAGGAUUGAUGGCAGCUGAGGGAAAUUCUUGCCCAACUAAACCCAGAACUCAAACUUAACAUUAGAAAAUAA | 0.798
CGUCCAAGGCUGUGCAUUCGUCUAAUUAGCGUCGUGUAUGUUUUCCUUUUAUUUUUUCCAAUAAAAAAGCAGUGGGAUGAAAAUUGCUUUGAUAUAUAGCAGGUAACAUU | 0.683
ACUCCACCGAAGAGGUGCGCCACUGGGAGCCACCCCAGCGCCAGGCGCCCGUCCAGGGACACACACAGUCUUCACUGUGCUGCAGCCAGAUGAAGUCUCUCAGAUGGGUG | 0.295
CCCUUCUUAACGAGCAAUAUGUCUGACCUGUACUAUAAGAUCUUUCUGAUAACGCAGAGAUUUUUUGUUUUUUUUUGGUAGCUCAGUAGAAGUGCGUCCUGUUUUCGCCU | 2.48
UGGCCCGUGGACAGGAUAAGCAGAUGCACCUGUGACUGACUGGAGGCGUGUUGCUGUGUAUCCCGGGCAUCCAUGGGUUCCAACUGCCACUGCCCCAGUCUUGGCCAGAG | 0.829
UCCCGAGUCCUUGGCUUAGCAUGGCCUCCUUUUCUAGAACUGCACAGAGGGGAGGAGAGAGUAGCCGGUAGACGGAAGGAGGGAGGGGCAUGCGUACAUGUCAGGUGUUG | 8.91
UAGCCCCAUCUGGACCAUCCACCCACAUCUGCUUGUCAAUCUGGCUGCAAACCUAAGCAGGCAGGUAGUCUAUGGACUUCCAAACUUAGAAGGGUCUGAUAUUAGGUUUA | 0.26
